Published values of several laboratories.
Each numbered part is a random draw from the data of one study; scales do not carry over between parts. Positions count from the first letter of the parent shown.

Sample 1 — method: protein binding microarray; form: double-stranded DNA, one strand shown; medium: in vitro; tested at: not given; baseline: not given; reading: higher = stronger binding; measurement: E-score
Target: Histone acetyltransferase KAT6A, both winged helices, GST fusion (KAT6A, Homo sapiens, UniProt Q92794, residues 1-181)
Notes: 8-mer, flanks averaged, mean of 2 arrays, mostly near background
Residues (chain): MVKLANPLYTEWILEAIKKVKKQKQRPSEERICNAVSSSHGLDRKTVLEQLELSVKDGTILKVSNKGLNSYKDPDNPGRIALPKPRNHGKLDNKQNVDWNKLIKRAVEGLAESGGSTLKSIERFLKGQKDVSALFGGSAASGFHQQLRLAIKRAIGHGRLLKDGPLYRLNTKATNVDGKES
Oligonucleotide = CCCCAGCG; result = 0.0615
Oligonucleotide = TCAGTGGA; result = 0.0152
Oligonucleotide = ATTTATCG; result = 0.0557
Oligonucleotide = AATGTATG; result = 0.0795
Oligonucleotide = ACACTCTA; result = -0.0504
Oligonucleotide = CAAGGCGA; result = -0.123
Oligonucleotide = CAAGATTA; result = -0.196
Oligonucleotide = AATTGGGG; result = -0.211
Oligonucleotide = TCCGGCGA; result = 0.224
Oligonucleotide = ACGGAGGA; result = 0.0659
Oligonucleotide = GCCTAGCA; result = -0.0136
Oligonucleotide = AAGCGACT; result = -0.0944
Oligonucleotide = AGTGTATC; result = -0.14
Oligonucleotide = CCACGGGG; result = 0.113
Oligonucleotide = AGCAGTAC; result = -0.111
Oligonucleotide = ATTGTCGC; result = 0.032
Oligonucleotide = TATTAAAA; result = 0.0525
Oligonucleotide = ACGCACTG; result = 0.113
Oligonucleotide = ATAAAGGG; result = -0.0293
Oligonucleotide = GCCTCTCC; result = -0.206
Oligonucleotide = CCAGTGTC; result = 0.0175
Oligonucleotide = ATGAGCAG; result = -0.157

Sample 2 — target: CCNA2, cyclin fold, Cln2 fusion (human); method: yeast growth competition, sequencing; medium: yeast; notes: weak parent motif; baseline: not given; reading: higher = stronger binding; measurement: normalised enrichment score
Starting sequence: SLBP docking peptide (human); ARYKRKLLINDFG
Substitution = ARYKRKLLICDFG [N10C]; result = 0.577
Substitution = APYKRKLLINDFG [R2P]; result = 1.4
Substitution = ARYPRKLLINDFG [K4P]; result = 0.0091
Substitution = ARCKRKLLINDFG [Y3C]; result = 1.44
Substitution = RRYKRKLLINDFG [A1R]; result = 0.958
Substitution = ARYKRKLLINDFV [G13V]; result = 2.02
Substitution = ACYKRKLLINDFG [R2C]; result = 0.705
Substitution = ARYIRKLLINDFG [K4I]; result = 1.09
Substitution = ARYKRKLHINDFG [L8H]; result = 1.32
Substitution = ARYKEKLLINDFG [R5E]; result = 0.37
Substitution = ARYFRKLLINDFG [K4F]; result = 1.85
Substitution = ARYARKLLINDFG [K4A]; result = 0.369
Substitution = AREKRKLLINDFG [Y3E]; result = 1.02
Substitution = ARYKRFLLINDFG [K6F]; result = 1.36
Substitution = ARYKRRLLINDFG [K6R]; result = 1.09
Substitution = ARYKRKLLINDFA [G13A]; result = 1.18
Substitution = AMYKRKLLINDFG [R2M]; result = 0.994
Substitution = AVYKRKLLINDFG [R2V]; result = 0.953
Substitution = AYYKRKLLINDFG [R2Y]; result = 2.08
Substitution = ARYKRKLLIEDFG [N10E]; result = 1.35
Substitution = ARYKRKLLINDMG [F12M]; result = 0.846
Substitution = ARYKGKLLINDFG [R5G]; result = 0.73

Sample 3 — method: RNA Bind-n-Seq; form: RNA; medium: in vitro; tested at: 365 nM; baseline: no-protein control; reading: higher = stronger binding; measurement: RBNS enrichment (R)
Target: RNA binding protein fox-1 homolog 2, RRM domain, GST-SBP tag (RBFOX2, Homo sapiens, UniProt O43251-10, residues 100-194)
Notes: natural RNA segment, single round, ends assumed
All sequences stand within: GGGAGUUCUACAGUCCGACGAUC … UGGAAUUCUCGGGUGCCAA
Residues (chain): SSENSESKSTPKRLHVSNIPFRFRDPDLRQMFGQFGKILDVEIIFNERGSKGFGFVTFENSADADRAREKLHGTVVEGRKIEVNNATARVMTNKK
Oligonucleotide = CCUUCUGUGCCAGGCAUUCUGGUCACUGACCUUGAACUAGGCCUGCAGGCUCUCCUGUCACCCCGCAUCACCUCACCCUUCUCUGUCCCUCAGCCUUCAGUCACAUUUAG; result = 0.807
Oligonucleotide = UCUUCAACUCUUGCCCCAUGUCUCCUUGGCAGCAGGAUGCUGGCAUCUGUGUAGUCCUCAUACUGUUUACUGAUAACCCACAAAUUCAUUUUCAUGGCAGACCUAAGCUC; result = 0.468
Oligonucleotide = AACACCAGCUGCUGUCAAGCAAGCUUAUAUCAUGUAAAUUAUCUGAAUUAGGAGCCGUUUUGGUAAUUAUUUCAUAUAUCGCCGUUUAUUGAGAAAAGGUUGUAGGAAGC; result = 0.253
Oligonucleotide = GCUUCCUAGUUUACAGCAUGAUGCAAAUGAUUUUCUAACUUAGUGUUAGGAGAAAAUAUUUUCCAUCUUUUAACCUCUUAGUUGUCUAAGAGUUAAAUAUUACUGAAUUU; result = 0.504
Oligonucleotide = AGUGGGCUGGGGCCUUGAGGUGACUCUGUGUCUCCCCCCAAAGCCACAGGGCAGGGAAGGGGGUGGCUGGGCCUCCUGGCUGGCAAAGGGCUCUACUUAAAGCACAUGAU; result = 0.348
Oligonucleotide = CGAAAGAUUAUUUCCUGUGUUUGCUUUGAUUUGUUCCUCAGUACAUUAAAAUGAUCCACACCUUGAACACUGCCCUCUCUAGAAGGUUGAUUUUGAUCAGCCUUUUGAAG; result = 0.289
Oligonucleotide = AAGUACAGGCCAAGUGUUGUCAAACACCUUGGCUAAAACAGUGGAGGGUGAUGGGUAAAGCAGUAGAGGGCCCUCAACCCACACACUGGCUGAAACUGCCACCAACUGCC; result = 0.353
Oligonucleotide = UUCUGUCAGAUGCUACUCCAAAUGUUACCAGAACGAUGACAAAAGGGGAGACGCUCUAUUUUUUCACAGUUAAAUGACAGUUGUAGAUUGAUACGCAGUUGUGCAUGGGA; result = 1.89
Oligonucleotide = GUGUGGGGGAUAAAACAGGACAGACGACAGGUCCACCCAAGACUGUCAAGGGAUGAGCAUCCCAAACCUGCUCCACAGAGGUAGCUGCGUCCUGAAAAAAAACAGAGCAG; result = 0.41
Oligonucleotide = AUGGCCCACUUUGACCACUAACAACAUCAGAAUUAUCUACAUCAAUUUCAUUGAGCCAUUGGUGAAUGAAGACACCCAUCACUUGUCAUGUUGGUUUCCAACAGUCCUUU; result = 0.335
Oligonucleotide = UCAGUGUUUUGUACUUCACUGAAUUGUGAUGGUUAGAAACUUCGUGGAUAGUUUGUGGAAAUCAUCCAAUUAAACAUACUGCUUAAAACAGUGUUGCUGUGACUUCAGAG; result = 0.339
Oligonucleotide = CCAAUUAGAAAUAAUUGUAAUGCCUAAAAAACUUUUUCACAAAAAUGAAUCUUUGAAAUUUUUUAUUGUUGAAAAAGUGUUAAGUAACAUAAAUCUAAUCAGAUAUCUUA; result = 0.65

Sample 4 — method: DHFR PCA, deep sequencing; medium: yeast; with: (+)-ABA 2500 µM; baseline: wild-type fitted maximum; reading: higher = stronger binding; measurement: relative binding score
Target: ABI1, truncated, D143A, DHFR fusion (Arabidopsis thaliana)
Notes: methotrexate growth selection, single substitutions
Starting sequence: PYL1, truncated, DHFR fusion (Arabidopsis thaliana); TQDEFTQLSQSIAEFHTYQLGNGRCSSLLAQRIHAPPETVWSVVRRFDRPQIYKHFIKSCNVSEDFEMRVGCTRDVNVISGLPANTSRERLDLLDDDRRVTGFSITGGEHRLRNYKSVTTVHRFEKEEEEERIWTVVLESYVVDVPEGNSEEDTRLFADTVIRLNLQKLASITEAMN
Substitution = V121D; result = 6.25%
Substitution = N177K; result = 101%
Substitution = E139Q; result = 91.9%
Substitution = Q31M; result = 84.6%
Substitution = R49H; result = 95.5%
Substitution = S42I; result = 85.3%
Substitution = T1Y; result = 98.8%
Substitution = G108C; result = 83.1%
Substitution = V137K; result = -4.78%
Substitution = V62R; result = 81%
Substitution = A30E; result = 104%
Substitution = P146V; result = 81.9%
Substitution = A35D; result = 25.4%
Substitution = T17A; result = 99.7%
Substitution = C25V; result = 99.3%

Sample 5 — target: BATF3, bZIP domain (human); method: DHFR protein complementation; medium: yeast; baseline: wild-type JUN-FOS pair; reading: higher = stronger binding; measurement: binding fitness
Notes: single substitutions, most at no-binding floor
Starting sequence: JUN, bZIP domain (human); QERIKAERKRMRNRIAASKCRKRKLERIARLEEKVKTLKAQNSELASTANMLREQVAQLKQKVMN; partner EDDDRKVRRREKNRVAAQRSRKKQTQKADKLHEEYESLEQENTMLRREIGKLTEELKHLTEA
Substitution = K39P; result = -0.641 natural log
Substitution = V56K; result = -0.0785 natural log
Substitution = K36M; result = 0.359 natural log
Substitution = K36D; result = 0.223 natural log
Substitution = S47M; result = 0.177 natural log
Substitution = N42P; result = -0.842 natural log
Substitution = T37L; result = 0.276 natural log
Substitution = Q55S; result = 0.0319 natural log
Substitution = E44T; result = 0.141 natural log
Substitution = V35C; result = 0.208 natural log
Substitution = L52D; result = -1.04 natural log
Substitution = N42I; result = -0.585 natural log
Substitution = S43M; result = 0.19 natural log
Substitution = R53L; result = 0.014 natural log
Substitution = L31E; result = 0.232 natural log
Substitution = E32C; result = -0.0178 natural log
Substitution = E44K; result = 0.186 natural log
Substitution = K34V; result = 0.178 natural log
Substitution = K36Q; result = 0.191 natural log
Substitution = L45I; result = -0.0628 natural log
Substitution = I28A; result = 0.198 natural log
Substitution = N42M; result = -0.395 natural log
Substitution = R30K; result = 0.126 natural log
Substitution = T48M; result = 0.136 natural log
Substitution = V35S; result = -0.046 natural log

Mixed results
Molecule = PhoQ, residues 284 288 289 292 302 303 SSTMSV; target = PhoP, residues 12 14 15 18 19 NFCKL (Escherichia coli, UniProt P23836); assay = Sort-seq, measured: YFP reporter; system = E. coli; setting = PhoQ-PhoP variant library, with: 10 µM Mg2+; how to read = baseline: high Mg2+ state, higher = stronger signaling; measurement = fold induction; result = 1.15

For quick reference, copied from above (sample 2):
Substitution = ARYKEKLLINDFG [R5E]; result = 0.37
Substitution = ARYFRKLLINDFG [K4F]; result = 1.85
Substitution = ARYARKLLINDFG [K4A]; result = 0.369
Substitution = AREKRKLLINDFG [Y3E]; result = 1.02
Substitution = ARYKRFLLINDFG [K6F]; result = 1.36
Substitution = ARYKRRLLINDFG [K6R]; result = 1.09
Substitution = ARYKRKLLINDFA [G13A]; result = 1.18
Substitution = AMYKRKLLINDFG [R2M]; result = 0.994
Substitution = AVYKRKLLINDFG [R2V]; result = 0.953
